Published values from different studies.
A part holds a random share of what one study measured. Substitutions count along the parent as printed.
Chain of UniProt P35372 (whole entry, looked up): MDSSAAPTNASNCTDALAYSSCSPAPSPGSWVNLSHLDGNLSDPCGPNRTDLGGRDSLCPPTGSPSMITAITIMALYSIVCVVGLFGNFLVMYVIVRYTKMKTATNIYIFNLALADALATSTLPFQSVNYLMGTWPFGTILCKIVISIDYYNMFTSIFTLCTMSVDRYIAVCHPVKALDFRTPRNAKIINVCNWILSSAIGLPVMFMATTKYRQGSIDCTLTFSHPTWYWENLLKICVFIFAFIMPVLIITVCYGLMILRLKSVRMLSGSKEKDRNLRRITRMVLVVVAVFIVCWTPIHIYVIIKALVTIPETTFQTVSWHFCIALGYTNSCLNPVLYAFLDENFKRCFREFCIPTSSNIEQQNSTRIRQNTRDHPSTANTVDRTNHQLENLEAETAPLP

Sample 1 — target: CCND2, cyclin fold, Cln2 fusion (human); method: yeast growth competition, sequencing; medium: yeast; setting: strong parent motif; reference: not given; direction: higher = stronger binding; measurement: normalised enrichment score
Parent: viral docking peptide; YKVKRRLVFGADD; partner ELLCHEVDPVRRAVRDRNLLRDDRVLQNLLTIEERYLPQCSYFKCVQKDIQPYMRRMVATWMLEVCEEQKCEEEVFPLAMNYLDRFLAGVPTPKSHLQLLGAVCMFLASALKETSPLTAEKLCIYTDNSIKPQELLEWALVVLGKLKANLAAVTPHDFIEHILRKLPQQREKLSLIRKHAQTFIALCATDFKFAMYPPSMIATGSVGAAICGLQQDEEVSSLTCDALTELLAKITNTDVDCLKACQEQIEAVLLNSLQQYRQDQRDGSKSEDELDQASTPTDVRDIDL
K4H: 0.518
K4G: 0.898
R5L: -0.0241
V3R: 0.326
R6H: 0.629
G10C: 1.26
A11G: 1.56
R5A: 0.255
K4A: 1.91
D12H: 0.804
L7R: 0.554
L7P: -0.175
R5I: 0.067
G10A: 0.906
K4I: -0.0693

Sample 2 — method: protein-binding microarray; molecule type: double-stranded DNA, one strand shown; medium: in vitro; concentration: 250 nM; setting: 60-bp whole probe; together with: salmon DNA 0.4 mg/ml; reference: random background probes; direction: higher = stronger binding; measurement: log fluorescence; all sequences stand within: GCCTAGCAC … GTCTTGATTCGCTTGACGCTGCTG
Target: Interferon regulatory factor 7, full length, phosphomimetic (IRF7, Homo sapiens, UniProt Q92985, residues 1-503, S101K/S471D/S472D/S475D/S476D/S477D/S483D/S484D/S487D)
Residues (chain): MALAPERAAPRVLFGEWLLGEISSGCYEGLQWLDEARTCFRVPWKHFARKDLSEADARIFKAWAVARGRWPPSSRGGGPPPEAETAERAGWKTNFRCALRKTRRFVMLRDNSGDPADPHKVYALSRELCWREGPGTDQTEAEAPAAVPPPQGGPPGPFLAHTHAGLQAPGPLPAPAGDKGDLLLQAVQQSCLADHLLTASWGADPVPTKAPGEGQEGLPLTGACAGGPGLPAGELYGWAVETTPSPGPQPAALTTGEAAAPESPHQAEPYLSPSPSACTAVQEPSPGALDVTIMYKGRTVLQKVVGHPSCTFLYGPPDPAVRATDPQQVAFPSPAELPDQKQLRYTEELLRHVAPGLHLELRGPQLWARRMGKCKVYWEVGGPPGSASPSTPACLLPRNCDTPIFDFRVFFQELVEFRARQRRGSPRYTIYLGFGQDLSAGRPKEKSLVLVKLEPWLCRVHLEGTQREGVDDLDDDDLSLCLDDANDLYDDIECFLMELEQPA
GGCGGACTGGGGACTGGGGACGTGCTA: -0.677 z-score
GACGGTATCCTTACCCTGACGTGCTAG: -0.241 z-score
GACGACCTGAGTTTCGAGACGTGCTAG: 3.45 z-score
TTCGGTATCCTACTGCTTTAGTGCTAG: 0.155 z-score
GACGATTTCCGGACTGGAGACGTGCTA: 0.0779 z-score
GACGGTTTCGGTCTCGTGACGTGCTAG: 7.96 z-score
ACCCTTGAGTGGTCCAGAGTGTGCTAG: -0.702 z-score
GACGAACTGACTCTCGAGACGTGCTAG: -0.0787 z-score

Sample 3 — observed: peptide-MHC binding; molecule type: peptide; concentration: concentration not given; measurement: binding
Target: HLA class I histocompatibility antigen, A alpha chain, allele A*80:01 (Homo sapiens, UniProt P04439)
MTYLDGHPV: inactive
NVMDPMHGA: inactive
EAEKQLQQY: inactive
IQKGMFVVK: inactive
NTIEELSGY: inactive
VYWENEVSI: inactive

Mixed results
CNCc1ccccc1-c1csc([C@@H](C)Nc2nc(C)nc3cc(OC)c(OC)cc23)c1  inhibition (Mu-type opioid receptor (OPRM1, Homo sapiens, UniProt P35372); cell-free assay; 10 µM): 46.8%
